Experimental data collected from several papers.
Protocols differ between the studies behind these lines. Values joined by “and” are separate records of one study, mostly repeats; a detail may differ. Numbers after ± are the reported error.

`O=C(O)[C@H]1O[C@@H](Oc2ccc(/C=C\c3cc(O)cc(O)c3)cc2)[C@H](O)[C@@H](O)[C@@H]1O`: CSF concentration “not detected” (human, cerebrospinal fluid; dose not given, mean).
For `Cc1nc(C)c(-c2ccnc(Nc3ccc(Cl)cc3)n2)s1`, the logP was 4.23 (octanol/buffer, 40 mM buffer; pH 11).
`O=C1CCc2ccc(OCCCCN3CCN(c4cccc(Cl)c4Cl)CC3)cc2N1` — result for “gastrointestinal symptom frequency”: 5.3% (CYP2D6 poor metabolizers; concentration not given, genotype-based phenotype, long-acting oral or depot).
`Cc1ccc(Sc2ccccc2N2CCNCC2)c(C)c1` has a diarrhoea incidence of 0% (healthy adult men; oral, 20 mg single dose, treatment-emergent adverse events).
`CCCCCC(=O)N1CCC[C@H]1C(=O)N[C@@H](CCC1CCCCC1)C(=O)N[C@@H](CC(C)C)C(=O)NC(C)(C)C(=O)N[C@@H](CC(C)C)C(=O)N[C@@H](CC(C)C)C(=O)NC(C)(C)C(=O)NC(C)(C)C(=O)NCCC(=O)N[C@@H](C)CN(C)C` gave an alpha-helix content of 100% (circular dichroism; phosphate buffer; pH 7.4, 20 °C).
`NC[C@H](NC(=O)c1ccc(C#Cc2ccccc2)cc1)C(=O)NO` has a logP of 1.02 (octanol/buffer; pH 11).
`O=C(COc1ccc(Cl)cc1)NC12CC(c3nnc([C@H]4C[C@@H](OC(F)(F)F)C4)o3)(C1)C2` has a steady-state Ctrough of 5.44 µM (healthy human both sexes, plasma; oral, 145 mg once daily, day 14, mean).
The accumulation ratio of `Cc1cc(-c2nccc3c2ccn3CC(=O)Nc2ccc(-c3cnccn3)cn2)ccn1` is reported as 1.08 (item: Cmax; human, plasma; oral, 15 mg once daily; baseline: day 16 over day 1).
With `Cc1noc(C)c1Cn1cc(N2C(=O)CN(Cc3cccc(O)c3)C2=O)cn1` the remaining parent was 59 % peak area (pooled human liver microsomes; 50 µM, 30 min, pH 7.4).
`COc1ccc2nc(-c3ccccn3)c(N(C)c3ccc(F)cc3)n2c1` gave an MRT(0-last) of 1.09 h and 1.28 h (male CD-1 mouse, fasted, plasma; oral, 50 mg/kg, together with: 1-aminobenzotriazole 50 mg/kg).
With `COc1cccc(OC)c1CNC(=O)c1ccc2c(c1)C(=NNc1ccc(S(N)(=O)=O)cc1)C(=O)N2` the logP was 2.39 (octanol/buffer, 40 mM buffer; pH 11).
For `COc1ccc([C@@H](O)c2cc(-c3ncnc4cc(N5CCOCC5)ccc34)c(F)cc2Cl)nn1`, “diarrhoea TEAE incidence” read 100% (locally advanced rectal cancer patients; 50 mg, together with: capecitabine and radiotherapy).
`O=C(CCCCCCC(=O)Nc1ccc(CC[18F])cc1)NO` gave a tissue uptake of 11.1 ± 1.6 %ID/g (athymic nu/nu male mice, LNCaP xenograft, bone; intravenous, 1 h).
For `CC(=O)O[C@H]1C(=O)[C@@]2(C)[C@H]([C@H](OC(=O)c3ccccc3)[C@]3(O)C[C@H](OC(=O)[C@H](O)[C@@H](NC(=O)c4ccccc4)c4ccccc4)C(C)=C1C3(C)C)[C@]1(OC(C)=O)CO[C@@H]1C[C@@H]2O`, “adverse events, all grades” read 13% (item: blood alkaline phosphatase increased; patients with advanced solid tumours; intravenous, dose not given, phase Ib, related to compound).
For `O=C(Nc1nc2cccc(-c3ccc(CN4CCS(=O)(=O)CC4)cc3)n2n1)C1CC1`, “treatment-emergent adverse events” read 0% (item: investigations; human rheumatoid arthritis patients; oral, 75 mg once daily, 4 weeks, regardless of relatedness).
With `CCn1cc(C(=O)N2CCOCC2)c(=O)c2cc(NC3Cc4ccccc4C3)cnc21` the Cmax was 3410 ng/mL (human, fasted, plasma; oral, 600 mg single dose, tablet, arithmetic mean).
`Cc1cc(C)c(CNC(=O)c2cc(Cl)c3c(c2C)O[C@@](C)([C@H]2CC[C@H](N(C)C)CC2)O3)c(=O)[nH]1` — result for “accumulation ratio of AUCtau”: 1.19 (item: total drug; human; oral, 200 mg, cycle 1 day 15).
For `Cc1cc(NC2CCN(C(=O)OC3CCN(C(=O)/C=C/CN(C)C)C3)CC2)n2ncc(C(C)C)c2n1` (stereo not shown), “patients with adverse event” read 0% (Phase I dose escalation CTCAE v4.0, item: dermatitis acneiform; patients with advanced solid tumours; dose not given, TIW dosing grade 3 or higher).
`C[C@@H](c1nc(-c2ccc(C#N)cc2)cs1)[C@](O)(Cn1cncn1)c1cc(F)ccc1F`: “adverse event Paronychia” 0% (healthy humans; oral, dose not given, together with: ketoconazole).
Under “incidence of Vomiting”, `NC1(C(=O)N[C@@H](CCO)c2ccc(Cl)cc2)CCN(c2nc[nH]c3nccc2-3)CC1` is recorded as 0% (metastatic CRPC patients; dose not given, grade 3 to 4, treatment-related, all doses, together with: enzalutamide 160 mg daily).
`CCN(Cc1ccc(F)cc1)c1ccc(CO)c(Cl)c1` has an AST of 1220 U/L and 109 U/L and 437 U/L (F344 rat, male, serum; oral, 100 mg/kg/day, 2 days).
`Cl.[2H]C([2H])([2H])CC(=O)c1cnc(NC(=O)C2CC2)cc1Nc1cccc(-c2ncn(C([2H])([2H])[2H])n2)c1OC` gave a Cmax of 171 ng/mL (human, fasted, multiple dose; oral, 20 mg once daily, tablet, day 1, geometric mean).
`CCN1/C(=C/C(C)=O)Sc2ccc(F)cc21` — result for “QTc interval change”: 99.8 ± 3.2% (cynomolgus monkey; oral, 30 mg/kg, 24 h post-dose; baseline: pre-dose).
`O=C1CC[C@H](N2Cc3cc(N4CCN(CC5CCN(c6ccc([C@@H]7c8ccc(O)cc8CC[C@@H]7c7ccccc7)cc6)CC5)CC4)ccc3C2=O)C(=O)N1` — result for “scaled intrinsic clearance”: 46.5 mL/min/kg (cryopreserved human hepatocytes; 1 µM).
`C[C@H](Oc1ccc(Br)cc1-c1ccon1)C(=O)O` — result for “accumulation ratio (Cmax)”: 0.811 (human, plasma; 400 mg once daily, day 10; baseline: day 1).
The logP of `CNS(=O)(=O)Cc1ccc2[nH]cc(CCN(C)C)c2c1` is reported as 0.8 (octanol/buffer, 40 mM buffer; pH 11).
For `O=C(O)CSc1nnc(Br)n1-c1ccc(C2CC2)c2ccccc12`, the body weight was 37.8 g and 36.8 g and 32.6 g and 34.8 g and 41.6 g and 38.8 g (KM mouse, chronic hyperuricaemia model; dose not given, day 25).
The SUV of `[18F]c1ccc(-c2ccc3c(c2)[nH]c2ccncc23)cn1` is reported as 0.311 ± 0.095 (ex vivo biodistribution; B6SJL mouse, normal, skin; intravenous, 30 min).
For `NS(=O)(=O)c1ccc(NN=C2C(=O)Nc3ccc4[nH]nnc4c32)cc1`, the logP was -0.62 (octanol/buffer; pH 11).
For `Cc1cc(-c2nnc(N)nc2-c2ccc(F)cc2)cc(Cl)n1`, “patients with immune-mediated AE” read 0% (item: Arthritis; IO-naive mCRPC patients, male; oral, dose not given, treatment-related, grade 2).
With `CCc1c(-c2ccccc2)c(-c2ccccc2)nn1-c1ccccc1-c1cccc(OCC(=O)O)c1` the concentration was 255 ng/mL and 169 ng/mL (Sprague-Dawley rat, fat homogenate; oral, 10 mg/kg, 4 h).
For `CCCC(=O)N[C@@H](Cc1ccccc1)C(=O)N[C@@H](Cc1ccc2ccccc2c1)C(=O)N[C@@H](CCCNC(=N)N)C(=O)N[C@@H](CCCNC(=N)N)C(=O)N[C@@H](CCCNC(=N)N)C(=O)N[C@@H](CCCNC(=N)N)C(=O)N[C@@H](CC)C(=O)N[C@@H](CCCCNC(=S)Nc1ccc2c(c1)C(=O)OC21c2ccc(O)cc2Oc2cc(O)ccc21)C(N)=O`, “complete degradation time” read ≤ 3 h (human serum; 37 °C).
Under “nighttime blood pressure”, `CC(=O)N[C@@H](CCCNC(=N)N)C(=O)N[C@H]1CSSC[C@@H](C(N)=O)NC(=O)[C@H](Cc2c[nH]c3ccccc23)NC(=O)[C@H](CCCNC(=N)N)NC(=O)[C@@H](Cc2ccccc2)NC(=O)[C@H](Cc2c[nH]cn2)NC(=O)[C@@H](C)NC1=O` is recorded as “increased” (telemetered cynomolgus monkeys; subcutaneous, 3 mg/kg).
The logP of `O=C(O)c1ccc(C(=O)Nc2cc(C3CC3)n[nH]2)cc1` is reported as -1.3 (octanol/buffer, 40 mM buffer; pH 11).
`N#Cc1ccc2c(c1)[C@H]1CCCN(C(=O)c3ccc4[nH]cnc4c3)[C@H]1C2` — result for “cortisol level change”: -203 nmol/L (human; 160 mg, day 7; baseline: baseline).
`O=C(N/N=C/c1ccccc1O)c1ccncc1` has a stability of 102% (DMEM cell medium; 4 µM, 7 days, -80 °C, long-term storage).
For `CCn1ccc2c([C@](O)(c3ccc(C(F)(F)F)nc3)C3CC3)n(C)nc2c1=O`, the CLint,u was 114 mL/min/kg (rat Sprague-Dawley male, blood; intravenous, 1 mg/kg).
`COc1ccc2c(=O)n(C)c(-c3ccccc3)nc2c1` has a concentration of 21.1 ng/g (Sprague-Dawley rat, male, heart; oral, 30 mg/kg, 0.5 h).
`Cc1c(C(=O)O)ccc2c3n(nc12)[C@@H]1[C@H](C3)N(CC2CC2)[C@@]2(C(=O)Nc3cc(Cl)ccc32)[C@H]1c1cccc(Cl)c1F` gave a Cmax of 1.37 µM (female BALB/c nude mice, SJSA-1 xenograft, plasma; oral, 1 mg/kg twice daily, 2 doses, mean).
`C[C@@H](Oc1cc(-c2cnn(C3CCNCC3)c2)cnc1N)c1c(Cl)ccc(F)c1Cl`: “dose-normalised Cmax, geometric mean” 1 ng/mL/mg (patients, plasma; oral, dose not given, cycle 2 day 1, together with: avelumab).
`CCc1nc(C(N)=O)c(Nc2ccc(N3CCC(N4CCN(C)CC4)CC3)c(OC)c2)nc1NC1CCOCC1` — result for “long-term stability accuracy”: 96.8% (mouse plasma; 15 ng/mL, 22 days, -80 °C).
For `CNC(=O)c1ccc(-c2cnc3ncc(Cc4ccc5ncccc5c4)n3n2)cc1F`, the Seizure patients was 1% (Japanese patients; oral, 400 mg twice daily, any grade).
`N[C@H]1C(O)O[C@H](CO)[C@@H](O)[C@@H]1O` (stereo partly shown) gave an osmolality of 26 mOsmol/kg (aqueous solution; 30 mM, together with: glucose).
The drug concentration of `C[C@@H]1CCO[C@H]2Cn3cc(C(=O)NCc4ccc(F)cc4F)c(=O)c(O)c3C(=O)N12` is reported as 5800 ± 1100 ng/g (Tat+ transgenic mouse, hippocampus; subcutaneous osmotic pump, dose not given, 5 d).
`Cc1ccnc(C(=O)NC2CCCCC2)c1O` gave a logP of 3.3 (shake-flask, potentiometric; 1-octanol/water).
`CN(CCC#N)C1CCN(C(=O)Cn2cc(NC(=O)c3cnn4cccnc34)c(-c3cc(Cl)ccc3OC(F)F)n2)CC1` has a stomach deposition of 28.6% (gamma scintigraphy; human; inhalation, 1 mg single dose; baseline: emitted dose).
`C[C@H]1CN(C(=O)CC#N)[C@]12CCN(c1ncnc3[nH]ccc13)C2`: “subjects with Headache” 0% (healthy human; oral, 3 mg single).
With `Cc1ccc(CNC(=O)c2cc(/C=C/C(=O)O)cc(-c3ccc4ncnn4c3)c2)cc1` the time stable was > 240 min (mouse, plasma; 37 °C).
Under “subjects with adverse event”, `CC(C)n1c(Nc2cccnc2)nc2cnc(Nc3ccc(N4CCN(C)CC4)cc3)nc21` is recorded as 0% (item: aspartate aminotransferase increased; healthy male subjects; oral, 150 mg, study, together with: rifampin).
`[O]=[Co].[O]=[Co][O][Co]=[O]` gave a haematocrit of 60% (Crl:CD(SD) rat male, blood; oral, 734 mg Co/kg/day, 90 days).
`N[C@@H]1c2cccnc2[C@H](OC(=O)N2CCC(n3c(=O)[nH]c4ncccc43)CC2)CC[C@H]1c1cccc(F)c1F`: “decrease in CL/F” 74.3% (human; oral, dose not given, together with: itraconazole).
`CC(C)(C(=O)N1CCOc2c(C#N)cncc2C1)C(F)F`: “subjects with TEAE” 12.5% (item: general and administration site disorders; human, both sexes; oral, 15 mg twice daily, 14 days, multiple ascending dose).
For `C=CC(=O)N(C)CCOc1c(N)ncnc1-c1cc(F)cc(NC(=O)c2ccc(C3CC3)cc2F)c1C`, “Cmax per dose” read 2.38 ng/mL/mg (human; oral, 50 mg, day 3, median, given alone).
`O=C(Cc1ccc(-c2cccs2)cc1)Nc1cc(C2CC2)[nH]n1` has a logP of 4.19 (octanol/buffer, 40 mM buffer; pH 11).
`CNCc1ccc(-c2[nH]c3cc(F)cc4c3c2CCNC4=O)cc1` — result for “decreased appetite incidence”: 0% (patients; oral, 600 mg twice daily, grade 5).
The haematocrit of `CCc1cc(C(=O)NC)c2nccc(N3CCc4c(cc(Cn5ccnc5)cc4-c4cn(C)nc4C(F)(F)F)C3=O)c2c1` is reported as 43 ± 2.16% (Sprague Dawley rats; oral, 100 mg/kg twice daily, 7 days).
For `CCCCCCCCCOC(=O)CCCCCCCN(CCO)CCCCCCCC(=O)OC(CCCCCCCC)CCCCCCCC`, the zeta potential was 2.83 mV (pH 5.5, formulated).
`CO[C@H]1C[C@@H]2CC[C@@H](C)[C@@](O)(O2)C(=O)C(=O)N2CCCC[C@H]2C(=O)O[C@H]([C@H](C)C[C@@H]2CC[C@@H](OC(=O)NCCOCCOCCOCCOCCOCCOCCOCCOCCC(=O)N3CCc4cc(Cn5nc(-c6ccc7oc(N)nc7c6)c6c(N)ncnc65)ccc4C3)[C@H](OC)C2)C[C@@H](O)[C@H](C)/C=C(\C)[C@@H](O)[C@@H](OC)C(=O)[C@H](C)C[C@H](C)/C=C/C=C/C=C/1C` has an AUClast of 21.1 µM·h (tumour-bearing xenograft mice, plasma; intraperitoneal, 1 mg/kg, weekly dosing).
